Results pooled from the literature.
Each line is one published result; not all experiments were run side by side. “And” joins repeats or separate records; there may be more than shown. Numbers after ± are the reported error.
USP14: Ubiquitin carboxyl-terminal hydrolase 14 (USP14, Homo sapiens, UniProt P54578)
Gria2/Glutamate receptor 3: Gria2/Glutamate receptor 3 (Rattus norvegicus, UniProt P19491+P19492)
PPO3: PPO3 (Agaricus bisporus, UniProt C7FF04)
SLC6A9: Sodium- and chloride-dependent glycine transporter 1 (SLC6A9, Homo sapiens, UniProt P48067)
T1: DNA hairpin, hairpin; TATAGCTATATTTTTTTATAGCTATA

Under “isoTOP-ABPP competition ratio”, `CCCCCCCCCCCCC/C=C/C=O` is recorded as 1.1 (Myosin-9 (MYH9, Homo sapiens, UniProt P35579); competitive isoTOP-ABPP; proteome, soluble, MDA-MB-231; 100 µM, together with: iodoacetamide probe; relative to: DMSO over compound-treated, higher = stronger cysteine blockade).
`CC(=O)NCCN(c1nc(N2CC3C(CCOc4cc(-c5scnc5C)ccc4CNC(=O)[C@@H]4C[C@@H](O)CN4C(=O)[C@@H](NC(=O)C4(F)CC4)C(C)(C)C)C3C2)nc(N2CC(n3ccnc3)C2)n1)C(C)C` (some centres unmarked): “ternary complex formation” 25% (VHL/BRD9, with Elongin B/C (Homo sapiens, UniProt P40337+Q9H8M2); native mass spectrometry; 5 µM, together with: BRD9 and VCB at 5 µM; relative to: unbound BRD9).
`O=C(N1CCCC1)n1cc(-c2ccc(-c3ccccc3)cc2)nn1` — result for “SILAC activity ratio”: 1.19 (Protein ABHD13 (Abhd13, Mus musculus, UniProt Q80UX8); probe labelling, inhibitor, competitive ABPP-SILAC, refers to: Abhd13; mouse T cells; concentration not given, 4 h, protein level; relative to: treated over DMSO cells, lower = stronger inhibition).
`CC[C@@H](C)[C@@H](NC(=O)[C@@H](Cc1ccc(O)cc1)NC(=O)[C@H]1CCCN1C(=O)[C@@H](CCCNC(=N)N)NC(=O)[C@H](N)Cc1c[nH]cn1)C(=O)N[C@H](C)C(=O)N[C@H](Cc1c[nH]cn1)C(=O)NCC(=O)NCC(=O)NCC(=O)N[C@@H](CCCCNC(=O)CCCC[C@@H]1SC[C@@H]2NC(=O)N[C@@H]21)C(N)=O` has a binding rate of 0.37% and 0.4% and 0.53% (Cd274 (Mus musculus, UniProt Q9EP73); flow cytometry; mPD-L1-expressing cells; concentration not given).
With `O=C1CCCC(O)=C1C1(O)C(=O)c2ccccc2C1=O` the inhibition was 81% (USP14; enzyme activity, inhibitor; 17 µM).
Under “log2 LFQ intensity”, `N[C@H]1CC[C@H](Nc2nccc(-c3cccnc3Oc3ccc(NC(=O)NC4CC4)c4ccccc34)n2)CC1` is recorded as 20.3 and 18.3 and 19.8 and 21 (TOP2B (Homo sapiens, UniProt Q02880); kinobead competition pulldown; HEK293/HCT116 lysate mixture; 10 µM, 1 h, 4 °C; lower = stronger competition).
With `Cc1nn(-c2ccccc2)c2c1CC1(C(=O)NC(=O)c3ccccc31)C1CCCN21` (centres unmarked) the inhibition was 6% (USP14; enzyme activity, inhibitor; 17 µM).
`COC(=O)[C@@]1(C)C=C(C(=O)Nc2cccc(C(=O)Nc3ccc(Nc4nccc(-c5cccnc5)n4)c(C)c3)c2)C(=O)CC1` has a remaining activity of 0.169 (MAPK8 (Homo sapiens, UniProt P45983); enzyme activity, inhibitor; 0.1829 µM, 18 h, unit not given, together with: GSH 10 mM pre-incubation; relative to: vehicle).
`C[Si](C)(C)C[C@@H](CN)CC(=O)O` gave an inhibition of 11% (GABAA receptor, rat; binding, radioligand binding; 75 µM, together with: [3H]flunitrazepam).
With `O=C1c2sc(-c3ccc(N4CCC(CO)CC4)nc3F)nc2CCN1c1cccnc1` the specific binding was -0.362 nM (TAR DNA-binding protein 43, aggregated (TARDBP, Homo sapiens, UniProt Q13148); radioligand binding; control brain sarkosyl-insoluble extract; 142.86 nM).
`CCCCCC=CC=C1C(=O)C=CC1CC=CCCCC(=O)O` (centres unmarked): “isoTOP-ABPP competition ratio” 1.8 (Histone acetyltransferase type B catalytic subunit (Homo sapiens, UniProt O14929); competitive isoTOP-ABPP, refers to: HAT1 cysteine peptide; Ramos soluble proteome; 100 µM, together with: iodoacetamide probe; relative to: DMSO over compound-treated, higher = stronger cysteine blockade).
`NC(=S)Cc1nc2ccccc2s1` has an inhibition of 30% (USP14; enzyme activity, inhibitor; 17 µM).
With `COC(=O)Cc1cc2c(cc1C(=O)c1ccc(Cl)cc1Cl)OCO2` the current amplitude was 185 ± 17 pA (Gria2/Glutamate receptor 3; glutamate-evoked current, whole-cell patch clamp; HEK-293T; concentration not given, pH 7.4, holding potential -60 mV, together with: 10 mM glutamate).
`CC(C)[C@@H]1NC(=O)[C@H](Cc2ccccc2)NC(=O)CSC[C@@H](C(N)=O)NC(=O)[C@H](CCC(=O)O)NC(=O)[C@H](CO)NC(=O)[C@H](Cc2c[nH]c3cccc(Cl)c23)NC(=O)[C@H](C2CCCCC2)NC(=O)[C@H](C(C)C)NC(=O)[C@H](Cc2ccc(O)cc2)NC(=O)[C@H](CC(=O)O)NC(=O)[C@H](Cc2c[nH]c3ccccc23)NC(=O)[C@H](Cc2ccc(N)nc2)NC(=O)[C@H](Cc2c[nH]c3ccc(Cl)cc23)NC(=O)[C@H](CCC(=O)O)NC1=O` gave a remaining activity of 109% (Interleukin-1 receptor-like 2 (IL1RL2, Homo sapiens, UniProt Q9HB29); reporter gene (SEAP), inhibitor, HEK-Blue IL-36R reporter; HEK-Blue IL-36R cells; 0.005 µM, 6 h, together with: IL-36γ 1 ng/mL).
Under “deactivation time constant”, `COC(=O)Cc1cc2c(cc1C(=O)c1cccc(Br)c1)OCO2` is recorded as 2.8 ± 0.2 ms (Gria2/Glutamate receptor 3; glutamate-evoked current, whole-cell patch clamp; HEK-293T; concentration not given, weighted tau, 1 ms pulse, together with: glutamate).
`C#CCOC(=O)[C@@]1(C)C=C(C(=O)Nc2cccc(C(=O)Nc3ccc(C)c(Nc4nccc(-c5cccnc5)n4)c3)c2)C(=O)CC1` has a remaining activity of 0.0842 (MAPK9 (Homo sapiens, UniProt P45984); enzyme activity, inhibitor; 4.938 µM, unit not given; relative to: vehicle).
With `C1=Cc2ccccc2N(Cc2cc(-c3ccc(OCc4ccccc4)cc3)no2)c2ccccc21` the apparent Vmax was 33.1 µmol/min (PPO3; enzyme activity, inhibitor; concentration not given).
The remaining signal of `CCOC(=O)C1CCCN(CCOC(c2ccc(OC)cc2)(c2ccc(OC)cc2)c2ccc(C(C)=O)cc2)C1` (centres unmarked) is reported as 91.1% (SLC6A9; cell-free assay; 1 µM).
For `Cc1cnc2nc1Nc1cccc(c1)COC/C=C/COCc1cc(ccc1OCCN1CCOCC1)N2`, the remaining binding was 94% (EGFR (Homo sapiens, UniProt P00533, del747-752/P753S); binding; 0.1 µM).
For `O=C(O)Cc1cc2c(cc1C(=O)c1ccccc1)OCO2`, the current amplitude was 245 ± 29 pA (Gria2/Glutamate receptor 3; glutamate-evoked current, whole-cell patch clamp; HEK-293T; concentration not given, pH 7.4, holding potential -60 mV, together with: 10 mM glutamate).
`O=[N+]([O-])c1cc(Br)cc([N+](=O)[O-])c1NS(=O)(=O)c1ccc(Br)cc1`: “HAB1 phosphatase activity” 0.12 a.u. and 0.116 a.u. and 0.115 a.u. (PYL5, with HAB1 (Arabidopsis thaliana, UniProt Q9FLB1); antagonist; 160 µM, together with: ABA 5 µM; higher = more HAB1 activity).
Under “BLI binding response”, `CC1(C)C[C@@H](Nc2cccc(-c3sc(C(=O)O)c(OCC(=O)O)c3Cl)c2)CCN1S(=O)(=O)Cc1cccc(NC(=O)CN2CCC(c3ccc4c(c3)oc(=O)n4C3CCC(=O)NC3=O)CC2)c1` (some centres unmarked) is recorded as 0.571 a.u. and 0.52 a.u. (PTPN2 (Homo sapiens, UniProt P17706); degrader, bio-layer interferometry; 250 nM, biotinylated protein immobilised; higher = more binding).
`COc1ccc(C(OCCN2CCCC(CN)C2)(c2ccc(OC)cc2)c2ccc(OC)cc2)cc1` (centres unmarked) has a remaining signal of 78.9% (SLC6A9; cell-free assay; 1 µM).
The calcium influx of `O=C(Nc1cc(C(=O)Nc2ccc(S(=O)(=O)O)cc2S(=O)(=O)O)cc(C(=O)Nc2ccc(S(=O)(=O)O)cc2S(=O)(=O)O)c1)Nc1cc(C(=O)Nc2ccc(S(=O)(=O)O)cc2S(=O)(=O)O)cc(C(=O)Nc2ccc(S(=O)(=O)O)cc2S(=O)(=O)O)c1` is reported as 89.2% (P2X purinoceptor 1 (P2RX1, Homo sapiens, UniProt P51575); antagonist, calcium influx; 3.16 nM, together with: submaximal α,β-methylene ATP; relative to: ionomycin response).
For `O[C@@H]1Cc2cccc(OCCF)c2C[C@H]1N1CCC(c2ccccc2)CC1`, the selectivity ratio was 0.91 (SIGMAR1 (Homo sapiens, UniProt Q99720); rat liver (sigma2), human sigma1; relative to: Ki sigma2 over Ki sigma1).
`Nc1nnc2c(n1)-c1ccccc1C2=O` has an inhibition of 60% (USP14; enzyme activity, inhibitor; 17 µM).
Under “binding free energy ΔG”, `OC[C@H]1O[C@@H](Oc2cc3c(O)cc(O)cc3[o+]c2-c2cc(O)c(O)c(O)c2)[C@H](O)[C@@H](O)[C@H]1O` is recorded as -7.4641 ± 0.00478 kcal/mol (PPO3; fluorescence quenching; 298 K).
The remaining signal of `O=C(O)C1CCCN(CC/C=C\C(c2ccccc2)(c2ccccc2)c2ccccc2)C1` (centres unmarked) is reported as 101% (SLC6A9; cell-free assay; 1 µM).
`C#CCCC1(CCC(=O)NCC2CN(CCCCCNC(=O)CN(CCN)C(=O)Cn3cnc4c(=O)[nH]c(N)nc43)CCN(CCCCCNC(=O)CN(CCN)C(=O)Cn3cnc4c(=O)[nH]c(N)nc43)CCN(CCCCCNC(=O)CN(CCN)C(=O)Cn3cnc4c(=O)[nH]c(N)nc43)CCN2CCCCCNC(=O)CN(CCN)C(=O)Cn2cnc3c(=O)[nH]c(N)nc32)N=N1` (centres unmarked): “change in melting temperature” 0.6 °C (T1, DNA hairpin, hairpin; FRET melting).
Under “Pearson correlation coefficient”, `CC(C=CC=C(C)C=CC1=C(C)CCCC1(C)C)=CC=O` is recorded as 0.71 (Rhodopsin (RHO, Homo sapiens, UniProt P08100, T17M); ER retention, immunostaining co-localization, refers to: opsin with calnexin; COS-7 transfected T17M; 0.10 µM).
With `CC(C)Oc1cc(Cl)ccc1CNc1cc(-c2ccccc2)nc2ncnn12` the cAMP luminescence was 25200 a.u. and 25500 a.u. and 27900 a.u. and 35000 a.u. (GPR3 (Homo sapiens, UniProt P46089, V155A); cAMP level, cAMP GloSensor; 100 pM; higher = more cAMP).
The SILAC ratio of `Cc1cc(C)cc(COc2cc3c(cc2OCc2cc(C)cc(C)c2)C2CC(O)(Cc4cn(CCOCCOCCNC(=O)CCCCC5SCC6NC(=O)NC65)nn4)CC(C)N2CC3)c1` (centres unmarked) is reported as 1.62 (T-complex protein 1 subunit gamma (Homo sapiens, UniProt P49368); biotinylated probe pull-down, refers to: CCT3; 10 µM probe; relative to: heavy over light).
